Assay results from different studies.
Compare with care: the assays were run in different laboratories. Values joined by “and” are separate records of one study, mostly repeats; a detail may differ. ± gives the spread as reported.
UniProt P05177, sequence (whole entry, looked up): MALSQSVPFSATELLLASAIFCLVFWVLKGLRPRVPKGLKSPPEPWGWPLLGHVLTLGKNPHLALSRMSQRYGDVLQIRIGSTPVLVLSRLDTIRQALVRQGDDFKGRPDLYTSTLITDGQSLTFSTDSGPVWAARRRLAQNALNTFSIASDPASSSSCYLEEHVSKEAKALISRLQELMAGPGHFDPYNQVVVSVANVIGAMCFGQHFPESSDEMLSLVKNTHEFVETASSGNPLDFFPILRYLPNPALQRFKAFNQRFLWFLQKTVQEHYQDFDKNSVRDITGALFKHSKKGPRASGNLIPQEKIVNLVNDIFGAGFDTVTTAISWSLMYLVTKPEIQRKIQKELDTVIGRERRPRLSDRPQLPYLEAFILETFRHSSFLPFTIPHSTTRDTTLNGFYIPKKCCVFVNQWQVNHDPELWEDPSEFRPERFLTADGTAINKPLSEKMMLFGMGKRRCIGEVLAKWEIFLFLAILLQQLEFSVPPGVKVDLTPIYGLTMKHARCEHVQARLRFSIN
UniProt Q9NPD5, sequence (whole entry, looked up): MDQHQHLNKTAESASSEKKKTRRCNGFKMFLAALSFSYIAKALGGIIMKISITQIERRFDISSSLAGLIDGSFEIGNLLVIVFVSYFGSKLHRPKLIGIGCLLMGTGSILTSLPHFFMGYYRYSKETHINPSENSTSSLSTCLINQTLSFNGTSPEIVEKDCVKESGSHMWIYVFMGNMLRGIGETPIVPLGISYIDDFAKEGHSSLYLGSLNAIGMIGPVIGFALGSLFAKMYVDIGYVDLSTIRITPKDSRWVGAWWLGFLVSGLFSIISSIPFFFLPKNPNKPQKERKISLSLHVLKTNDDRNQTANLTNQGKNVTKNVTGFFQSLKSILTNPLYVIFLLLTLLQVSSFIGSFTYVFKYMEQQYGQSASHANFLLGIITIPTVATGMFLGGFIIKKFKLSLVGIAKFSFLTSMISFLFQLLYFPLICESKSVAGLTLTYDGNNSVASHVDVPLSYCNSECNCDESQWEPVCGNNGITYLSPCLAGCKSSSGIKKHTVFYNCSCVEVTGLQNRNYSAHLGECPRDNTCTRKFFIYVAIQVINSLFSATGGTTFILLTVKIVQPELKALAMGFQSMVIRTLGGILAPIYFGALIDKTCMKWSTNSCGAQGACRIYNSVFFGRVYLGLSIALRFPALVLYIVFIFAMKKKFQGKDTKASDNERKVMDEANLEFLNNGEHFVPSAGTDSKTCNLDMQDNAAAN
UniProt Q9UNQ0, sequence (whole entry, looked up): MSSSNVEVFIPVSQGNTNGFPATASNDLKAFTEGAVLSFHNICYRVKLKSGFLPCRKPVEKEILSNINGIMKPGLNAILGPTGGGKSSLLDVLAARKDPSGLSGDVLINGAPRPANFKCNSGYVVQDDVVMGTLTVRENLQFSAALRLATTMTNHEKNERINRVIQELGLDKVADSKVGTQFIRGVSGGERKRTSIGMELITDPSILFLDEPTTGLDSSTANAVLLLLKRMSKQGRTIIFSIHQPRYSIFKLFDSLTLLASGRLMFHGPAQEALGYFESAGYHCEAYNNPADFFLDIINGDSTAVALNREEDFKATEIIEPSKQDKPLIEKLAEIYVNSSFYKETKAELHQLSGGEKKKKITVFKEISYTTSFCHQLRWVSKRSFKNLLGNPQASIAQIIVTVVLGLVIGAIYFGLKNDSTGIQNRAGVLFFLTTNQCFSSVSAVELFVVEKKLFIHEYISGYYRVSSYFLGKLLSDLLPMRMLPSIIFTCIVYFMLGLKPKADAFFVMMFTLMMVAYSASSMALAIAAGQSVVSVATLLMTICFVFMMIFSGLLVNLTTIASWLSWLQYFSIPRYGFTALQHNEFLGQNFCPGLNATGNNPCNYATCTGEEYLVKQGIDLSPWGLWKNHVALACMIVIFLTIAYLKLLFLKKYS

| Structure (SMILES) | target or system | test | test system | conditions | how to read | measurement | value |
| --- | --- | --- | --- | --- | --- | --- | --- |
| CC(C)OCCOCc1ccc(OCC(O)CN(N=O)C(C)C)cc1 (stereo not drawn) | Salmonella typhimurium | Ames test | TA100 | 5000 µg/plate, without metabolic activation | baseline: solvent control | revertant fold increase | 0.6 fold |
| CNC(=O)C1CCCN(C(=O)C2CC3CCC2N3C(=O)[C@@H]2C[C@@H](O)CN2C(=O)NCc2cccc(Cl)c2F)C1 (mixture of isomers) | Cytochrome P450 1A2 (CYP1A2, Homo sapiens, UniProt P05177) | preincubation with NADPH | human | 16.7 µM | baseline: negative control | remaining activity | 110% and 104% and 109% |
| CNS(=O)(=O)Nc1nccc(Cc2c(C)c3ccc(Oc4ncccc4F)cc3oc2=O)c1F | ASPC1 | cell viability | – | 7 days | – | IC50 | 10.6 nM |
| N#C[C@@H]1CC(F)(F)CN1C(=O)CNC(=O)c1ccnc2c(NC(=O)[C@H](CCCCNC(=O)CCOCCOCCOCCOCCOCCOCCNC(=O)CN3CCN(CC(=O)[O-])CCN(CC(=O)[O-])CCN(CC(=O)[O-])CC3)NC(=O)CCCc3ccc(I)cc3)cccc12.[177Lu+3] | U-87 MG tumour model | – | host not given, pancreas | 1 h, tumour-bearing | – | tracer uptake | 4.31 %ID/g |
| c1ccc(COc2ccc(Nc3ncnc4ccc(-c5cccc(N6CCOCC6)c5)cc34)cc2)cc1 | Leishmania major | intracellular amastigote growth, luciferase | RAW264.7 macrophages | – | – | EC50 | 20 µM |
| CCN(CC)CC#CCNc1ccnc2cc(Cl)ccc12 | Salmonella typhimurium | mini-Ames test | TA102 | 125.0 µg/well, with rat liver S9 | – | revertants | 94 revertants/well and 88 revertants/well |
| O=C(N/N=C/c1ccc2c(ccc[n+]2Cc2ccccc2)c1)C(=O)N/N=C/c1ccc2c(ccc[n+]2Cc2ccccc2)c1 | hp2 hairpin duplex DNA | FRET melting | – | 1 µM, together with: ds26 10 µM | – | ΔTm | 0.9 ± 0.3 °C |
| CN(O)C(=O)CCC(=O)NCCCN(CCCCN(CCCNC(=O)CCC(=O)N(C)O)C(=O)CCC(=O)N(C)O)C(=O)CCC(=O)N(C)O.[89Zr] | TF (Homo sapiens, UniProt P02787) | transchelation challenge | – | concentration not given, 5 days, 37 °C, together with: apo-transferrin 10 equiv | – | transferrin binding | 11.1 ± 1.2% |
| COc1cccc(OC)c1-c1cc(C(=O)NC2(C(=O)O)C3CC4CC(C3)CC2C4)nn1-c1ccc(C(=O)N(C)CCOCCN(C)C(=O)[C@H](CCCCNC(=O)[C@H](CC(C)C)NC(=O)C2OC2C(=O)O)NC(=O)CN2CCN(CC(=O)[O-])CCN(CC(=O)[O-])CCN(CC(=O)[O-])CC2)cc1C(C)C.[177Lu+3] (mixture of isomers) | HT-29 tumour model | – | host not given, stomach | 7 days, tumour-bearing | – | tracer uptake | 0.13 %ID/g |
| C=C(NC(=O)c1csc(-c2nc3c(cc2O)-c2nc(cs2)C(=O)NC(C(C)O)C(=O)NC(=C(C)OC)c2nc(cs2)C(=O)NC2c4nc(cs4)C(=O)NC(COC(=O)c4c5c6c(cccc6n4O)COC(=O)C(OC4CC(C)(O)C(N(C)C)C(C)O4)C2OC5)c2nc-3cs2)n1)C(N)=O (stereo not drawn) | – | – | cynomolgus monkey, both sexes, plasma | intravenous infusion, 9 mg/kg single dose | – | volume of distribution | 1820 mL/kg |
| CC(C)Cc1ccc(C(C)C(=O)N[C@@H](CCCCNC(=O)CCOCCOCCOCCOCCOCCOCCNC(=O)CN2CCN(CC(=O)[O-])CCN(CC(=O)[O-])CCN(CC(=O)[O-])CC2)C(=O)Nc2cccc3c(C(=O)NCC(=O)N4CC(F)(F)C[C@H]4C#N)ccnc23)cc1.[177Lu+3] (stereo partly drawn) | U-87 MG tumour model | – | host not given, heart | 24 h, tumour-bearing | – | tracer uptake | 0.53 %ID/g |
| O=C(c1ccc(OCCN2CCCCC2)cc1)c1c(-c2ccc(O[C@@H]3O[C@H](C(=O)O)[C@@H](O)[C@H](O)[C@H]3O)cc2)sc2cc(O)ccc12 | Solute carrier organic anion transporter family member 1B3 (SLCO1B3, Homo sapiens, UniProt Q9NPD5) | – | liver | – | – | contribution to uptake | 80% |
| CNc1nc(N)nc2c1ncn2[C@@H]1O[C@H](CO[P@](=O)(O)N[C@@H](C)C(=O)O)[C@@H](O)[C@@]1(C)F | Broad substrate specificity ATP-binding cassette transporter ABCG2 (ABCG2, Homo sapiens, UniProt Q9UNQ0) | bidirectional transport | MDCKII transfected with human BCRP | 10 µM | – | Papp A to B | 1.11 ± 0.12 ×10⁻⁶ cm/s |
| O=C1C2CC3CC1CC(C(=O)N1CCN(c4ccc([N+](=O)[O-])c5ncccc45)CC1)(C3)C2 | Salmonella typhimurium | Ames test | TA100 | 0.05 µg/well, without S9 | – | mean revertant colonies | 20 colonies/well |
| C[n+]1cccc2cc(/C=N/NC(=O)c3cncc(C(=O)N/N=C/c4ccc5c(ccc[n+]5C)c4)n3)ccc21 | hp2 hairpin duplex DNA | FRET melting | – | 1 µM, together with: ds26 10 µM | – | ΔTm | 0.9 °C |

Excerpt of the above:
| Structure (SMILES) | target or system | test | test system | conditions | how to read | measurement | value |
| --- | --- | --- | --- | --- | --- | --- | --- |
| CNS(=O)(=O)Nc1nccc(Cc2c(C)c3ccc(Oc4ncccc4F)cc3oc2=O)c1F | ASPC1 | cell viability | – | 7 days | – | IC50 | 10.6 nM |
| N#C[C@@H]1CC(F)(F)CN1C(=O)CNC(=O)c1ccnc2c(NC(=O)[C@H](CCCCNC(=O)CCOCCOCCOCCOCCOCCOCCNC(=O)CN3CCN(CC(=O)[O-])CCN(CC(=O)[O-])CCN(CC(=O)[O-])CC3)NC(=O)CCCc3ccc(I)cc3)cccc12.[177Lu+3] | U-87 MG tumour model | – | host not given, pancreas | 1 h, tumour-bearing | – | tracer uptake | 4.31 %ID/g |
